# Results of several laboratories.
# Protocols differ between the studies behind these lines. ± marks the error that the study gave.
# UniProt Q80W57, sequence (whole entry, looked up): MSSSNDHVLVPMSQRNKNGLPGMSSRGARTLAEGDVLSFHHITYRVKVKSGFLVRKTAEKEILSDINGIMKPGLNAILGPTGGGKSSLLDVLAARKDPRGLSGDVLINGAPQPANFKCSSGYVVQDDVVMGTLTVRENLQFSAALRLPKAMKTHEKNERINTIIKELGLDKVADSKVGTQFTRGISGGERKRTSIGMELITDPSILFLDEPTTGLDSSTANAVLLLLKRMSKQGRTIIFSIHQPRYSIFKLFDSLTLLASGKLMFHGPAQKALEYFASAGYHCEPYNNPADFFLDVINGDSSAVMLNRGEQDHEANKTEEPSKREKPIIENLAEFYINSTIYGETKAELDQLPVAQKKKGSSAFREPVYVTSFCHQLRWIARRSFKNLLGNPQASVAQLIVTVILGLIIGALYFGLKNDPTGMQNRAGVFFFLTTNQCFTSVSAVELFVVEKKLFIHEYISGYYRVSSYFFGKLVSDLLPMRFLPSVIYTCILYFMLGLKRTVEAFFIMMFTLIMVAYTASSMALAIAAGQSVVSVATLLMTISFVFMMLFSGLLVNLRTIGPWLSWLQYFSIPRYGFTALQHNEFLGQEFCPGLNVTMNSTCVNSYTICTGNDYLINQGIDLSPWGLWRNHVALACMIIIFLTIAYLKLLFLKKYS
Molecule,target or system,test,test system,setting,how to read,endpoint,value
CO/N=C(\C(=O)N[C@@H]1C(=O)N2C(C(=O)O)=C(CSc3nc(=O)c(=O)[nH]n3C)CS[C@H]12)c1csc(N)n1,Staphylococcus aureus,checkerboard broth microdilution,methicillin-susceptible isolate 56-96,added: magainin II,,FIC index,0.25
COc1c(Cl)c(C)c(C=O)c(O)c1C/C=C(C)/C=C/[C@@]1(C)[C@H](C)CCC(=O)[C@@H]1C,Wickerhamomyces anomalus,"O2 uptake, inhibitor",mitochondria,added: duroquinol 1 mM,,IC50,4200 nM
N=C(N)c1ccc(-c2cncc(-c3ccc(C(=N)N)nc3)n2)cc1,Trypanosoma brucei rhodesiense,,"STIB900, mouse, acute infection","intraperitoneal, 5 mg/kg daily, 4 days, parasite-free survival 60 days",,cured mice,50%
Cc1ccc(S(=O)(=O)N2C(=O)CSC2c2cccc(O)c2)cc1 (stereo not drawn),Streptococcus pneumoniae,broth microdilution,ATCC 49619,,,MIC,64 µg/mL
CO/N=C(\N)c1ccc(-c2cncc(-c3ccc(/C(N)=N\OC)cc3)n2)cc1,Trypanosoma brucei rhodesiense,,"STIB900, mouse, acute infection","oral, 25 mg/kg daily, 4 days, parasite-free survival 60 days",,cured mice,75%
Clc1nc(Cl)c2[nH]cnc2n1,Helicobacter pylori,"microbial growth, absorbance",26695,1.25 mM,,inhibition,93%
Cc1ccc(S(=O)(=O)N2C(=O)CSC2c2ccccc2C)cc1 (stereo not drawn),Streptococcus pneumoniae,broth microdilution,ATCC 49619,,,MIC,128 µg/mL
O=C1CCc2ccccc2O1,cysteine peptide Ac-RFAACAA-COOH,DPRA RapidFire-MS/MS,,"24 h, pH 7.5, added: 5.0 µM cysteine peptide",,maximal peptide depletion,-56.7%
O=C(N[C@H](Cc1c[nH]c2ccccc12)C(=O)Nc1ccncc1)c1ccc(-c2cccc(F)c2)cc1F,Trypanosoma cruzi,,"Y luc, mouse","oral, 50 mg/kg twice daily, 4 days, vehicle 20% Solutol",,parasite inhibition,> 70%
Cc1ccc(Cn2cc(/C=N/N3C(=O)CSC3=S)c3cc([N+](=O)[O-])ccc32)cc1,Trypanosoma brucei gambiense,,"trypomastigotes, IL1922",,,IC50,> 58000 nM
CN(C)c1ccc(Nc2c3ccccc3nc3ccccc23)cc1,Trypanosoma cruzi,"parasite growth, resazurin",,trypomastigote,,IC50,8880 nM
O=C(O)c1cc(/N=N/c2ccc(S(=O)(=O)Nc3ccccn3)cc2)ccc1O,"Abcg2 (Rattus norvegicus, UniProt Q80W57)",substrate,"Sprague-Dawley rat, male, plasma","oral, 2 mg/kg, added: 3,6,3',4'-tetramethoxyflavone 5 mg/kg",,Cmax,162 ± 19 ng/mL
O=C(Cc1ccc(Cl)c(Cl)c1)N1CCN(c2ccc3nncn3n2)CC1,Cryptosporidium parvum,,HCT-8,corrected for mouse protein binding,,EC90,36 nM
CC(C=CC1(C)C(C)CCC(=O)C1C)=CCc1c(O)c(C=O)c(C)c(Cl)c1OCC(=O)O (stereo not drawn),Wickerhamomyces anomalus,"O2 uptake, inhibitor",mitochondria,added: duroquinol 1 mM,,IC50,79500 nM
Clc1ccccc1,cysteine peptide Ac-RFAACAA-COOH,DPRA RapidFire-MS/MS,,"24 h, pH 7.5, added: 5.0 µM cysteine peptide",,peptide depletion,inactive
CC(C)=CCCC(C)=CC=O (mixture of isomers),Cryptococcus neoformans,,"CN, PBS","2 x MIC, up to 48 h, 37 °C",reference: untreated,time to 1 log10 kill,19 to 20 h
Clc1nc(SCc2ccccc2)c2[nH]cnc2n1,Helicobacter pylori,"microbial growth, absorbance",26695,40 µM,,inhibition,92%
Cc1ccc(S(=O)(=O)N2C(=O)CSC2c2ccc(Br)cc2)cc1 (stereo not drawn),Streptococcus pneumoniae,broth microdilution,ATCC 49619,,,MIC,64 µg/mL
C=C1[C@H](CO)[C@@H](O)C[C@@H]1n1cnc2c(=O)[nH]c(N)nc21,woodchuck hepatitis virus,,woodchuck,"oral, 0.1 mg/kg/day, monotherapy",,serum WHV DNA reduction,7.72 log10
CC(/C=C/[C@@]1(C)[C@H](C)CCC(=O)[C@@H]1C)=C\Cc1c(O)c(Cl)c(C)c(C=O)c1O,Wickerhamomyces anomalus,"O2 uptake, inhibitor",mitochondria,added: NADH 1 mM,,IC50,35 nM
colistin,Staphylococcus aureus,checkerboard broth microdilution,ATCC 25922,added: magainin II,,FIC index,1.5
C[S+]([O-])c1ccc(-c2nc(-c3ccncc3)c(-c3ccc(F)cc3)[nH]2)cc1 (stereo not drawn),Enterovirus A71,IRES reporter activity,RD,"2 µM, 2 h, added: 2A protease",,inhibition,32%
CC(C=CC1(C)C(C)CCC(=O)C1C)=CCc1c(O)c(C=O)c(C)c(Cl)c1OC(=O)c1cccnc1 (stereo not drawn),Wickerhamomyces anomalus,"O2 uptake, inhibitor",mitochondria,added: malate and pyruvate 15 mM,,IC50,370 nM
C[C@H]1c2cccc(O)c2C(=O)C2=C(O)[C@]3(O)C(=O)C(C(N)=O)=C(O)[C@@H](N(C)C)[C@@H]3[C@@H](O)[C@@H]21,Staphylococcus aureus,checkerboard broth microdilution,clinical isolate 21-99,added: magainin II,,FIC index,0.75
CC1(C)S[C@@H]2[C@H](NC(=O)[C@H](N)c3ccc(O)cc3)C(=O)N2[C@H]1C(=O)O,other non-fermenting bacteria,,community-acquired pneumonia patients,Fine score 70 or more,,sensitive strains,0%
C[C@@H](O)[C@H]1C(=O)N2C(C(=O)O)=C(S[C@@H]3CN[C@H](C(=O)N(C)C)C3)[C@H](C)[C@H]12,Staphylococcus aureus,checkerboard broth microdilution,methicillin-susceptible isolate 56-96,added: magainin II,,FIC index,0.375
CC(C)Nc1ccc(NC(=O)c2cc(Cl)ccc2O)c(Cl)c1,human respiratory syncytial virus,infectious progeny production,A549,"10 µM, 15 h",reference: vehicle,virus titre log reduction,~1.8 log10
O=C(/C=C/c1ccc(CN2CCCCC2)c(O)c1)c1ccc(Br)cc1,Plasmodium knowlesi,parasite growth,,"24 h, blood stage",,EC50,100 nM
c1ccc2[nH]c(-c3ccc(OCCN4CCOCC4)cc3)nc2c1,Enterococcus faecalis,"microbial growth, broth dilution",ATCC29212,,,MIC,> 256 µg/mL
CC[C@H]1OC(=O)[C@H](C)[C@@H](O[C@H]2C[C@@](C)(OC)[C@@H](O)[C@H](C)O2)[C@H](C)[C@@H](O[C@@H]2O[C@H](C)C[C@H](N(C)C)[C@H]2O)[C@](C)(OC)C[C@@H](C)C(=O)[C@H](C)[C@@H](O)[C@]1(C)O,Staphylococcus aureus,checkerboard broth microdilution,clinical isolate 15-99,added: magainin II,,FIC index,0.75

# For quick reference, copied from above:
Molecule,target or system,test,test system,setting,how to read,endpoint,value
colistin,Staphylococcus aureus,checkerboard broth microdilution,ATCC 25922,added: magainin II,,FIC index,1.5
C[S+]([O-])c1ccc(-c2nc(-c3ccncc3)c(-c3ccc(F)cc3)[nH]2)cc1 (stereo not drawn),Enterovirus A71,IRES reporter activity,RD,"2 µM, 2 h, added: 2A protease",,inhibition,32%
CC(C=CC1(C)C(C)CCC(=O)C1C)=CCc1c(O)c(C=O)c(C)c(Cl)c1OC(=O)c1cccnc1 (stereo not drawn),Wickerhamomyces anomalus,"O2 uptake, inhibitor",mitochondria,added: malate and pyruvate 15 mM,,IC50,370 nM
